Measured values pooled from the literature.
Each numbered part is a random draw from the data of one study; scales do not carry over between parts. Changes are numbered by the printed parent chain.

Study 1 — target: CCNB3, cyclin fold, Cln2 fusion (human); technique: yeast growth competition, sequencing; sample: yeast; setting: weak parent motif; baseline: not given; direction: higher = stronger binding
Starting sequence: CDC25A docking peptide (human); PPHRRRLLFACSP; partner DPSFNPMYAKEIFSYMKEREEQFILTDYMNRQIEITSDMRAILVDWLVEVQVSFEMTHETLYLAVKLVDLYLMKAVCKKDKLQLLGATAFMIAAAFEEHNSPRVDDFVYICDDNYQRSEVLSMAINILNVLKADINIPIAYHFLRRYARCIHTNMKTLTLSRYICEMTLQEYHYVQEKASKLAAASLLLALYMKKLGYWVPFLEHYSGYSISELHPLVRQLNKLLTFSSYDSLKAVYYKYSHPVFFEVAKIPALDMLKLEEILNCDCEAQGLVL
Substitution | normalised enrichment score
PPHRRRLLFACGP [S12G] | 0.415
PPHRRRLRFACSP [L8R] | 0.112
PGHRRRLLFACSP [P2G] | 0.26
PNHRRRLLFACSP [P2N] | 0.0339
PPHRYRLLFACSP [R5Y] | -0.0663
PPHRFRLLFACSP [R5F] | 0.307
MPHRRRLLFACSP [P1M] | 0.257
PPHRRRLLCACSP [F9C] | -0.171
PPGRRRLLFACSP [H3G] | 0.439
PPHPRRLLFACSP [R4P] | 0.476
PPHRRRLLFACYP [S12Y] | 0.536
PPHRRRLKFACSP [L8K] | 0.278
PPHRRRLLKACSP [F9K] | -0.0989

Study 2 — technique: protein-binding microarray; form: double-stranded DNA, one strand shown; sample: in vitro; tested at: 0.8 µM; setting: whole 60-bp probe, no competitor; direction: higher = stronger binding; constant ends, left off below: … GTCTTGATTCGCTTGACGCTGCTG
Target: Centromere-binding protein 1, full length, N-terminal tag (CBF1, Saccharomyces cerevisiae, UniProt P17106, residues 1-351)
Sequence of UniProt P17106 (whole entry, looked up): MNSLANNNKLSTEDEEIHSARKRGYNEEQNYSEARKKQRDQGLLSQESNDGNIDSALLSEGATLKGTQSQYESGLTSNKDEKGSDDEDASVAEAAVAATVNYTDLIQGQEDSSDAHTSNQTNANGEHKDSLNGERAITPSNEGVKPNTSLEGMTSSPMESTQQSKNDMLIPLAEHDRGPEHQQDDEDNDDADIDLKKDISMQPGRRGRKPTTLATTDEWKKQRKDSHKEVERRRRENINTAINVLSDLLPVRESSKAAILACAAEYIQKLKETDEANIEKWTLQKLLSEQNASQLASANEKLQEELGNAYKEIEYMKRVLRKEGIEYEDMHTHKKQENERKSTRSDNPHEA
Strand | fluorescence intensity [a.u.]
GAAGATTTTTTGCCGCACGTTTCCGCGTCAGACTAG | 644
CTAACTACTCGCCATCATGAGATTACGACATCTTTC | 532
CCTAACTACTATAAAGGCGTGCCATAGCTTCGTACA | 513
GAAGGTTATCCATGCCTCGTGTTGCTGCCAAGATAG | 608
CTAGCCTGATGTAATCACGAACTCGAACAAAAGTTC | 583
CTAACCAGATTCGATCATCAGAGCTTAAAATTGTTC | 509
GAACTGACACTGCCGCACGCTGCATTATGTGCCTAG | 542
CTATTATCTATAGCTGGTGATGCCTTGTTGTAGTTC | 549
GAAAGCTGTTAGTGCCACATGTTTCTATACAAATAG | 630
CTACTTTGGCACATGTTCGTGATACCTTCGTCTTTC | 1160
CTATCAGGTAGATCTCAGCACGTGTGCATGCGCTTC | 6120
CTATGCAAGCAATTGCACGCGAGTACTCTGCGTTTC | 502
GAATCGGGAGATTTTCAGGAGATTTTAAGGTTTTAG | 496
CTATTTTGACAACGTGATGAGGTAATCTTCTGTTTC | 2950
GAATGCCATGGAGTTGTCGTGATCCAGTTAAATTAG | 617

Study 3 — technique: protein binding microarray; form: double-stranded DNA, one strand shown; sample: in vitro; tested at: not given; baseline: not given; direction: higher = stronger binding
Target: Histone acetyltransferase KAT6A, winged helix 1, GST fusion (KAT6A, Homo sapiens, UniProt Q92794, residues 1-85)
Setting: 8-mer, flanks averaged, mean of 2 arrays, mostly near background
Construct (chain): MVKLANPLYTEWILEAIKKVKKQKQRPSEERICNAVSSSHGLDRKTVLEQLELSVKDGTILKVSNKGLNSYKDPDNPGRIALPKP
Strand | E-score
ACATAGGA | -0.076
ATTTGTGG | -0.152
GATAAGTA | 0.0189
AAGCCAGA | -0.0736
AAATCCCT | -0.0365
CGACCGCA | 0.254
TACATAGA | -0.232
GATATATA | -0.0936
GCCTGGCA | -0.152
GATCTCTA | -0.0469
GGTTAACA | 0.0371
CGCGTCGA | 0.3
GTGGATGA | -0.132
CCTGGATC | -0.134
CCATTTAA | -0.248
ACCGGGAC | 0.324
CCATTAGG | -0.0325
CCGTGGCG | 0.318
TCTTGGCA | -0.217
GCCCAATA | -0.0791
AATGGGGA | -0.178
AATTCCAC | -0.239
ATACCGAG | 0.0142
CGGCGCTA | 0.427
AATTCGCG | 0.232

Study 4 — technique: RNA Bind-n-Seq; form: RNA; sample: in vitro; tested at: 200 nM; setting: whole 134-nt RNA, ends assumed; with: 150 mM KCl; baseline: input library; direction: higher = stronger binding
Target: Fragile X messenger ribonucleoprotein 1, C-terminal low-complexity region (Fmr1, Mus musculus, UniProt P35922)
Constant ends, left off below: GGGAGUUCUACAGUCCGACGAUC … UGGAAUUCUCGGGUGUCAAGG
Strand | log2 enrichment
CUGUGCUACACAUCGUAUGUACCGAAUCGGGAAAAAAAGGGAAAAAAAGGGGAAAAAAAGGGAAAGUAUUAUGUUACGCCGUUCGGAUCU | -0.477
GGUGGACUAUGGUGCAACAGCAGAAGAGCUGGAAGCUCACUUUCAUGGCUGUGGUUCAGUCAACCGUGUUACCAUACUGUGUGACAAAUU | -0.884
GCAGGAAGUAAAAACAAAUGGAAAUGCUUCGGAUAGUGGCAGGGGUGGGGGUUGCUAAAAAAAGGGUGGGAUGGGAGUGGGUAAAGAGUU | 0.195
CAAGUCCUGUGCUACACAUCGUAUGUACCGAAUCGGGAAAAAGGGUUUGGGAGGGAAAGUAUUAUGUUACGCCGUUCGGAUCUGCACUUC | 0.93
AGUCCUGUGCUACACAUCGUAUGUACCGAAUCGGGUUUUUGGUUUUUGGGUUUUUGGGAAAGUAUUAUGUUACGCCGUUCGGAUCUGCAC | -0.471
AAGUCCUGUGCUACACAUCGUAUGUACCGAAUCGGGCCCCGGCCCCGGGGCCCCGGAAAGUAUUAUGUUACGCCGUUCGGAUCUGCACUU | -1.32
UCCUGUGCUACACAUCGUAUGUACCGAAUCGGGGAAAGGGGAAAAAAAGGGGUUUGGGGAAAGUAUUAUGUUACGCCGUUCGGAUCUGCA | 0.466

Study 5 — technique: RNA Bind-n-Seq; form: RNA; sample: in vitro; tested at: 365 nM; baseline: no-protein control; direction: higher = stronger binding
Target: RNA binding protein fox-1 homolog 2, RRM domain, GST-SBP tag (RBFOX2, Homo sapiens, UniProt O43251-10, residues 100-194)
Setting: natural RNA segment, single round, ends assumed
Constant ends, left off below: GGGAGUUCUACAGUCCGACGAUC … UGGAAUUCUCGGGUGCCAA
Strand | RBNS enrichment (R)
UUCCUCCGCUCACCCCAUUGCUUGUUAUCACUGGGGAUGCCUGGACUUGGUCAAGUGAGCAACUGAUUCUUGUUUUUAGCAACUCAAAACAUAAAAAGAUCAGGAGAGCA | 5.82
CUGACUAUUGAUAUACGCCCCCAAACUUAAGGUGUUCAUGUUAGAUUUUAAUUAGCUGUGAGAUUUAUGCACAAAGUGAAUAUUUAGCUGAUAGAAAUUAUGAUUUUGUU | 0.73
GCCAUUCUUGAGUUUGCCAGCUCCAUCCCAGGCUCCAAGUGCUGUGACUGGUGACUCUCAGGCAGGCAUGACAAAUUGCUGGCCUCCAUUCUUGGCCUUCCUAAUCACUC | 0.57
UGUAUGUUGUUCUUUUGUGUAUUUAUUUGUAUCAUAAACACAUGGGAAAGCAAAGACCAUAAGCACCAUUUUGCAGUUCUAUCUUUUUUUCCAGUUAGCCUAUGUAACCA | 0.559
AUGAAUGGGAUGUCUAAUGUAUUUCAAAAUCACCCAAAACUUUUGGCAAAUAAAAGCAUUUAAAAAGCCUUUCUGUACAGGAUUUUUAAAAUGUUAUCAGCUUAGUCUGA | 1.2
AUUGUUUGAUAUUGUCACCUAGCAGAUAUGUAUUACUUUUCUGCAAUGUUAUUAUUGGCUUGCACUUUGUGAGUAUUCUAUGUAAAAAUAUAUAUGUAUAUAAAAUAUAU | 1.17
GUAAUUUUUAUAAUUAUGAUGUAACUCUUAUCCUUCCUUAAAACAUUAAAAUAAACCCUUUAUGUGCAACUUGUGGCUGUGAACUUUGUGCUGCUGUGUUGAAUCUGCUG | 0.562
AGGAAAGAGGUAGGAGAGGCCGUGGAAAGCUUGUGUCCAGACGUCACUCCGGACAGUCCGACUUCCGUGUGGAAUGUCAGUCAGUCGGCUAGAGGAGUGGCAUCUGGAGC | 2.82

Some of these lines once more (study 3):
Strand | E-score
CCATTTAA | -0.248
GATCTCTA | -0.0469
TACATAGA | -0.232
